# Experimental data gathered from unrelated publications.
# Numbered parts are unrelated; each lists some results of a single study. Substitutions count along the parent as printed.

# Set 1 — method: DHFR PCA, deep sequencing; sample: yeast; together with: (+)-ABA 200 µM; baseline: wild-type fitted maximum; direction: higher = stronger binding
# Target: ABI1, truncated, D143A, DHFR fusion (Arabidopsis thaliana)
# Notes: methotrexate growth selection, single substitutions
# Starting sequence: PYL1, truncated, DHFR fusion (Arabidopsis thaliana); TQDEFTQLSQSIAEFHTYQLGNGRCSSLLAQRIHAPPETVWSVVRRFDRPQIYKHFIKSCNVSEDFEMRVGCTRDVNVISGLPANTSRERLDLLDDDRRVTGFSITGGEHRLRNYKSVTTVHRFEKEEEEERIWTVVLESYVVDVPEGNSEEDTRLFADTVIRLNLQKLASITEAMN; partner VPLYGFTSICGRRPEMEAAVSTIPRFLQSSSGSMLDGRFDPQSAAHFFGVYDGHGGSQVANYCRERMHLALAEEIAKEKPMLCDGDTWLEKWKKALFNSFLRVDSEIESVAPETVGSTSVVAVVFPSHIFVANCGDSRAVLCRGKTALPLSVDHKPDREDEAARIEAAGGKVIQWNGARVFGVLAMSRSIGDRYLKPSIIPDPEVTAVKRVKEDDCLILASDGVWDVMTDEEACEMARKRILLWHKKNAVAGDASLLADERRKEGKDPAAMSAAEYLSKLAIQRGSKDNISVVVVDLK
Change,relative binding score
D153C,57.6%
R132W,91.2%
P146T,60.8%
W134S,110%
G81K,50.1%
V40A,51.5%
S59H,93.6%
W41H,11.9%
D159P,-7.93%
I172N,40.5%
V121G,-2.68%
S171E,112%
V142C,95.5%
D97I,88.8%
C25G,52.7%
R113K,110%

# Set 2 — method: RNA Bind-n-Seq; form: RNA; sample: in vitro; tested at: 365 nM; baseline: no-protein control; direction: higher = stronger binding
# Target: RNA binding protein fox-1 homolog 2, RRM domain, GST-SBP tag (RBFOX2, Homo sapiens, UniProt O43251-10, residues 100-194)
# Notes: natural RNA segment, single round, ends assumed
# Constant ends, left off below: GGGAGUUCUACAGUCCGACGAUC … UGGAAUUCUCGGGUGCCAA
# Construct (chain): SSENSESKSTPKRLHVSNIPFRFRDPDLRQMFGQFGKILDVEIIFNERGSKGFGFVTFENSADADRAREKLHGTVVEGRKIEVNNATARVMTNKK
Strand,RBNS enrichment (R)
CGCGUGUGUGGACAGUCUUAUCUUCCAGCAUGAUAGGAUUUGACCAUUUUGGUGUAAACAUUUGUGUUUUAUAAGAUUUACCUUGUUUUUAUUUUUCUACUUUGAAUUGU,4.56
UUUCUUUUGGCUUGGUUUGGACCACAGUCCUCUGCUACCCAGGGUUUUAGAGCCCCUGCUCUAGGAAACAGUUUAAGAAAUCAUUGGCCCCUUCCCAGCACAUUGAAUGG,1.39
ACAACAGCUUUGAUGAGUUCCUAUUAAGGUCGUAUUGUGUAUUGUGCCAAAUUUUCCACCCAGUAUAAAUUUAGUAACCCGCUAUGAGCAUAUGUAGGAUAUUCAAUUUG,0.398
AAUCUCCCUCUAUUUUUUUAAAAUCACUAACAUUAUAUUGCAAUGAGAGAAAUUUUAAAAAGUCUCUAUUUAAAUUCUUUUUUUAAAUUUCUCUUCAGUUGGUGUGUUUC,1.78
GAACUCUUUCAAAACCUUUUGAAAUUAACCUCUCACUAUACCAGUAUAAUUGAGUUUUCAGUGGGGCAGUCAUUAUCCAGGUAAUCCAAGAUAUUUUAAAAUCUGUCACG,0.632
UAAGUUGCAUGCACUGCGGGACUUGCAGUCAGCUGGCUGCCAUUAUUCAUAGCCGCUUGGUAUGCAGUAACUUGGGGUGGAGGUAAAACACUAACAAAGGGGGCUUUUCU,2.57
GGCUGACACGUCCACCCCAGUGCACCCACUCUGCUUUGACUGAGCAGACUGGUGAGCAGACUGGUGGGAUCUGUGCCCAGAGAUGGGACUGGGAGGGCCCACUUCAGGGU,0.25
UACCAGAGCUCCUGCCUACCAAGACUGGAUGAAAGAAGCAGCUUUGAUGGGGUCUUUCCAUCCUCACCCUUAGACUCUCAACCAAAGAGAAAGGGCUGGAGGAUGCCCCC,0.452

# Set 3 — method: competition protein-binding microarray; form: double-stranded DNA, one strand shown; sample: in vitro; tested at: 2 µM; together with: Cbf1 competitor, 0.05 µM; direction: higher = stronger binding; constant ends, left off below: … GTCTTGATTCGCTTGACGCTGCTG
# Target: Phosphate system positive regulatory protein PHO4, full length, GST-tagged (PHO4, Saccharomyces cerevisiae, UniProt P07270, residues 1-312)
# Notes: whole 60-bp probe, lowest competitor level
# Construct (chain): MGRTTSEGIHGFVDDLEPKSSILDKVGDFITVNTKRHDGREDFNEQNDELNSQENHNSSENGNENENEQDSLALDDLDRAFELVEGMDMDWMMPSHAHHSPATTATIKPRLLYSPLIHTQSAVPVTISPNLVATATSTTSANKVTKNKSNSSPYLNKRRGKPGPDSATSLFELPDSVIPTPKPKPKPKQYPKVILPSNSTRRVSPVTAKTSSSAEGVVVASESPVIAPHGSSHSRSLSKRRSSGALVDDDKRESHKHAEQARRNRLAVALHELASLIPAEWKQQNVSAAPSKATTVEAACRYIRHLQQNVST
Strand,fluorescence intensity
AGGAAAAGCCAAGATCATAAGCAAGAAAGTTATCCT,2380 a.u.
CTTTCCCGATCTTGTCACGCGACTTTAGCACATTTG,7770 a.u.
TGGTGGAGTTTTACCCACGTGATGGAAGACTCCTGG,15000 a.u.
CCAAGGATTGGGTGGCATGTGATATCCAGTCTTGAG,8160 a.u.
ACAAATTTAGTATCTCACGTGTATACAATTGCTCTG,15400 a.u.
CATACCCAACCTTGGATGGTGGGTGAAGATATTTGT,3950 a.u.
ATAGAAATGGGTAGCCTTGTGACGGTGGATAATTCT,3860 a.u.
TGGAAGGAAAAACAGCACGCTTGTAAGGGGGATGGG,7670 a.u.
AAAGCGGTAATTTGTGTCGTGGGTGCAGATATCTAT,6100 a.u.
CTTCTGTAAATTTGAGGAGTGGGTGGACGCGCCCCG,4160 a.u.
AAAGCGGTAATTTGTACGGTGGGTGCAGATATCTAT,4160 a.u.
AAATTACTAAGTTGGACAGTGGGTGACGCCGTATGA,4180 a.u.
GGCCCAATGGAGCGTCACACTTTTAAACTTTCTAAA,3940 a.u.
TTGGAGTGGAACCCTCCCGTGTGGAAAACATATTTT,4310 a.u.
CTCTTTGGTCTTGGCCAGAGGTCCCAGAGTCGAAAA,2370 a.u.
TTTTGCGATAAATTTAACGTGCTTTTGAACAGGATT,7030 a.u.
CTGTCGGCCCAGTTCCACGTTCATCGCAACTATCAA,9830 a.u.

# Set 4 — method: Sort-seq; measured: YFP reporter; sample: E. coli; notes: PhoQ-PhoP variant library; together with: 10 µM Mg2+; baseline: high Mg2+ state; direction: higher = stronger signaling
# Molecule: PhoQ, residues 284 288 289 292 302 303 TNSAEL
target,fold induction
"PhoP, residues 12 14 15 18 19 VHTVL (Escherichia coli, UniProt P23836)",15.8
"PhoP, residues 12 14 15 18 19 ICWRQ (Escherichia coli, UniProt P23836)",1.48
"PhoP, residues 12 14 15 18 19 TQCLL (Escherichia coli, UniProt P23836)",1.83

# Set 5 — target: CCNE2, cyclin fold, Cln2 fusion (human); method: yeast growth competition, sequencing; sample: yeast; notes: strong parent motif; baseline: not given; direction: higher = stronger binding
# Starting sequence: PKN2 docking peptide (human); VSAVRKLDFSDTM; partner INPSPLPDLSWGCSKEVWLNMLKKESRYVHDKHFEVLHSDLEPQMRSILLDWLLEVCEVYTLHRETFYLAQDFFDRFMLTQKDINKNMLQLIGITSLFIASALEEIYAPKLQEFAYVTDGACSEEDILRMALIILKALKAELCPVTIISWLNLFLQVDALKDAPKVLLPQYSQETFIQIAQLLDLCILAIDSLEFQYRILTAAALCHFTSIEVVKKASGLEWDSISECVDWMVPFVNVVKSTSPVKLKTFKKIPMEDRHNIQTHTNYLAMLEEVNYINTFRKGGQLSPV
Change,normalised enrichment score
D11G,5.3
D8F,3.01
K6H,1.74
A3M,1.43
S10G,5.07
F9L,0.298
S10E,3.96
S10D,4.27
S10F,3.05
K6D,0.0138
T12A,4.89
F9N,0.316
R5G,-0.344
K6N,1.11
K6S,1.68
A3N,0.24
K6P,-0.371
T12S,4.86
V4S,1.38
L7R,0.289
S2N,4.67
S2F,3.01
S10M,3.5
F9H,0.353
R5F,0.0118

# A few entries again (set 2):
Strand,RBNS enrichment (R)
UUUCUUUUGGCUUGGUUUGGACCACAGUCCUCUGCUACCCAGGGUUUUAGAGCCCCUGCUCUAGGAAACAGUUUAAGAAAUCAUUGGCCCCUUCCCAGCACAUUGAAUGG,1.39
ACAACAGCUUUGAUGAGUUCCUAUUAAGGUCGUAUUGUGUAUUGUGCCAAAUUUUCCACCCAGUAUAAAUUUAGUAACCCGCUAUGAGCAUAUGUAGGAUAUUCAAUUUG,0.398
GAACUCUUUCAAAACCUUUUGAAAUUAACCUCUCACUAUACCAGUAUAAUUGAGUUUUCAGUGGGGCAGUCAUUAUCCAGGUAAUCCAAGAUAUUUUAAAAUCUGUCACG,0.632
GGCUGACACGUCCACCCCAGUGCACCCACUCUGCUUUGACUGAGCAGACUGGUGAGCAGACUGGUGGGAUCUGUGCCCAGAGAUGGGACUGGGAGGGCCCACUUCAGGGU,0.25
CGCGUGUGUGGACAGUCUUAUCUUCCAGCAUGAUAGGAUUUGACCAUUUUGGUGUAAACAUUUGUGUUUUAUAAGAUUUACCUUGUUUUUAUUUUUCUACUUUGAAUUGU,4.56
UACCAGAGCUCCUGCCUACCAAGACUGGAUGAAAGAAGCAGCUUUGAUGGGGUCUUUCCAUCCUCACCCUUAGACUCUCAACCAAAGAGAAAGGGCUGGAGGAUGCCCCC,0.452
